Experimental data pooled from the literature.
Compare with care: the assays were run in different laboratories. “And” joins repeats or separate records; there may be more than shown. ± gives the spread as reported.
SLC6A3: Sodium-dependent dopamine transporter (SLC6A3, Homo sapiens, UniProt Q01959)
Sequence of UniProt Q01959 (whole entry, unmodified, looked up): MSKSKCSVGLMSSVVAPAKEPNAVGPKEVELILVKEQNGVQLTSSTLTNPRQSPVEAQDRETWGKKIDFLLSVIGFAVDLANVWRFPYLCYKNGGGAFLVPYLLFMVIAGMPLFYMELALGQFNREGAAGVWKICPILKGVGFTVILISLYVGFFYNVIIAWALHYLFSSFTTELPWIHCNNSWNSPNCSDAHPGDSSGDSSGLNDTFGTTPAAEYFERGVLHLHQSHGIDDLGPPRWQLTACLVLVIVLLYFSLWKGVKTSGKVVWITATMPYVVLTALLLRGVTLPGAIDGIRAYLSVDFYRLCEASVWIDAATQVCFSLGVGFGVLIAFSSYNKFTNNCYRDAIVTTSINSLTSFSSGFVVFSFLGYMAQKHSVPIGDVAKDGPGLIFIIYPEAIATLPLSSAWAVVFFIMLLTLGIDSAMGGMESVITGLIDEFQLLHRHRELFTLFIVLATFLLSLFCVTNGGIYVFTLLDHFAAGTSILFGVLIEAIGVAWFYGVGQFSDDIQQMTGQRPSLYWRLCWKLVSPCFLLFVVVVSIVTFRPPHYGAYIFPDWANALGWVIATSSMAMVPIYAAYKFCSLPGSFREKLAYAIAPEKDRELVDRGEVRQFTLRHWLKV
DNA polymerase III PolC-type: DNA polymerase III PolC-type (Bacillus subtilis, UniProt P13267)
Sequence of UniProt P13267 (whole entry, looked up): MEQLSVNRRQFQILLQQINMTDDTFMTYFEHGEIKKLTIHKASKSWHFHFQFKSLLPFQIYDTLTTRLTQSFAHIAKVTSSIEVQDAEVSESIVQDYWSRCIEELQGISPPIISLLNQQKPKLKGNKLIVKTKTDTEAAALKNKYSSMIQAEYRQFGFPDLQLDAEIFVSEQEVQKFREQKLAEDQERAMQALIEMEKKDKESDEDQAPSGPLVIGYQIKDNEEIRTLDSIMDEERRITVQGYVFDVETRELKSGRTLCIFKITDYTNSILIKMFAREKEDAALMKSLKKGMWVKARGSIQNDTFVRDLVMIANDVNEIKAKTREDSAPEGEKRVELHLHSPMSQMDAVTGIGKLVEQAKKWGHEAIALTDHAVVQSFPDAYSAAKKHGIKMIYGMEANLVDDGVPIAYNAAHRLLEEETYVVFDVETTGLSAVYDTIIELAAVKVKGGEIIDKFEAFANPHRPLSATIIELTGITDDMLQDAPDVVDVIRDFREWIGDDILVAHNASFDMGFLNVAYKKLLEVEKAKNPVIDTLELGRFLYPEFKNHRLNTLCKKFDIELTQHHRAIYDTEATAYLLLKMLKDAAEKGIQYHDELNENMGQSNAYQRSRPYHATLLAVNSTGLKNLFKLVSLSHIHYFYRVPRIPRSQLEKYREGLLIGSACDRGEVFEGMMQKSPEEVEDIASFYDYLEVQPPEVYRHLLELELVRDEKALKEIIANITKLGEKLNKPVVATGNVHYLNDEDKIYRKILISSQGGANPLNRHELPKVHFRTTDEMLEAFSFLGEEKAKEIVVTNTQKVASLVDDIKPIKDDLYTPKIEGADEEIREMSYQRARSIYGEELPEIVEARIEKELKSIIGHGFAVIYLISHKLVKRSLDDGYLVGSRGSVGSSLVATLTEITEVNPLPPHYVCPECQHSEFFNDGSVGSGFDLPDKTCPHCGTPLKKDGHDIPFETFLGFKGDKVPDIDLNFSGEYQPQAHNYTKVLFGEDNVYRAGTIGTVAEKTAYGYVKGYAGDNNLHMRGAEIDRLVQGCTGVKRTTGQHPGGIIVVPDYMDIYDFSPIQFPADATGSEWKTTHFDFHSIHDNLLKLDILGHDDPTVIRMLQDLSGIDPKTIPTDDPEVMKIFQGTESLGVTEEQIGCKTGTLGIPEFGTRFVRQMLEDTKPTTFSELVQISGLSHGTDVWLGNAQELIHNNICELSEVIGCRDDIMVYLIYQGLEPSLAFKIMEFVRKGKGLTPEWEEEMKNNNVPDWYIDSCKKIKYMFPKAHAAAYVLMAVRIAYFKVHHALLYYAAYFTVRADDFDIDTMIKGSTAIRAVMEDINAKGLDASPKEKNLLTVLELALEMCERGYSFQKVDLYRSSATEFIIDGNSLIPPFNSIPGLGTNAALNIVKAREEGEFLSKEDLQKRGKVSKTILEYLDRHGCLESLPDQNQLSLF
UDP-3-O-acyl-N-acetylglucosamine deacetylase C40S: UDP-3-O-acyl-N-acetylglucosamine deacetylase (Pseudomonas aeruginosa, UniProt P47205, C40S)
SLC6A3 D313N: Sodium-dependent dopamine transporter (SLC6A3, Homo sapiens, UniProt Q01959, D313N)
Sequence of UniProt Q9NWT6 (whole entry, looked up): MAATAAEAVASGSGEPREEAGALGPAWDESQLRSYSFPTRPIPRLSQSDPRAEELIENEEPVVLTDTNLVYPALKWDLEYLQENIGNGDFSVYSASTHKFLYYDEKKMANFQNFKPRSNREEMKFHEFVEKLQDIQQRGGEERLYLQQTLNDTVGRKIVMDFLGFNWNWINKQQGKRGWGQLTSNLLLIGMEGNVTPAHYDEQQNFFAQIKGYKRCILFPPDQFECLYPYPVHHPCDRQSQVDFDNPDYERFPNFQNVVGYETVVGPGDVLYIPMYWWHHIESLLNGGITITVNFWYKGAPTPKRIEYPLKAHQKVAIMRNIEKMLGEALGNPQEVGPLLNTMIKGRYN
Sequence of UniProt P05183 (whole entry, looked up): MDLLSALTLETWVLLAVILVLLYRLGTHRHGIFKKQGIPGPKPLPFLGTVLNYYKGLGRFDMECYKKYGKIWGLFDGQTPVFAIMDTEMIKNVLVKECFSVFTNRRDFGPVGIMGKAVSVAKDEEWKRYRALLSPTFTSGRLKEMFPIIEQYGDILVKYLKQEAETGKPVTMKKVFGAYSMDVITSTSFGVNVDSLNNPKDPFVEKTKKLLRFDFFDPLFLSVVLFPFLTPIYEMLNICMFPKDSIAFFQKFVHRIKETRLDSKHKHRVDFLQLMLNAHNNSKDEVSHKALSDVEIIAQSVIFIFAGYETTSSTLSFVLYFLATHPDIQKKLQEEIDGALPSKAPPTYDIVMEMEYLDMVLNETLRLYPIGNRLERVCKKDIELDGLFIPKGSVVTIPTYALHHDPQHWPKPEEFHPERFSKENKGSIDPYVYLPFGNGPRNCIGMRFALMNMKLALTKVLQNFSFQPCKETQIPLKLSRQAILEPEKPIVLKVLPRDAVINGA
Sequence of UniProt P0DMS8 (whole entry, looked up): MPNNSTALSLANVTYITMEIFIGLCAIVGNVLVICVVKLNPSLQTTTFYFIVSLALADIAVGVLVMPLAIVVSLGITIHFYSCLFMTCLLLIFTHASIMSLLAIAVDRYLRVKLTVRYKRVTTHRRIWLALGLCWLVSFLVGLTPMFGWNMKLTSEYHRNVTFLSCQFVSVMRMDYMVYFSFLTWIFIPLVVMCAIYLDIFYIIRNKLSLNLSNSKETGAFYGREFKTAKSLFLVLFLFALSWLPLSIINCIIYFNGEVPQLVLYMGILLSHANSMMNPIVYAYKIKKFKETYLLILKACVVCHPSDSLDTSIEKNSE
Sequence of UniProt Q14765 (whole entry, looked up): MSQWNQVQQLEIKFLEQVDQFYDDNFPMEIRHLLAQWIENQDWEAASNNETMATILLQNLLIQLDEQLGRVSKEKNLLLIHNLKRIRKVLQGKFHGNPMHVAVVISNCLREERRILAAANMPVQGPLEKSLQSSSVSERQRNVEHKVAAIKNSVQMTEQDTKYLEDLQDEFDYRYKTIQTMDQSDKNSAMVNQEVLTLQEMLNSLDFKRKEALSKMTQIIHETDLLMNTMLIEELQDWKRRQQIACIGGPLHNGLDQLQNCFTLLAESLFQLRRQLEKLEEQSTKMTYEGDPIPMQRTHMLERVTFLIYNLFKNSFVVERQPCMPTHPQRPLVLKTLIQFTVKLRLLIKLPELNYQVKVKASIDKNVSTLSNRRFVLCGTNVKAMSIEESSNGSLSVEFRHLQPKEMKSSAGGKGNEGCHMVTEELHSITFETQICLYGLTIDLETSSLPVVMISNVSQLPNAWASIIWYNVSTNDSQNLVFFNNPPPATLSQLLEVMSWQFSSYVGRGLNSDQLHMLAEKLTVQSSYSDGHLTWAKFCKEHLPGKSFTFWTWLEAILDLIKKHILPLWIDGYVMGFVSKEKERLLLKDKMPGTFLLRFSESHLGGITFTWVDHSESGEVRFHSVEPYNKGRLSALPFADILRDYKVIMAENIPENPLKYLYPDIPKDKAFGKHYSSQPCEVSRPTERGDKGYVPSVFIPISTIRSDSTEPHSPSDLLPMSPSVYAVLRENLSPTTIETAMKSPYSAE
Sequence of UniProt P05182 (whole entry, looked up): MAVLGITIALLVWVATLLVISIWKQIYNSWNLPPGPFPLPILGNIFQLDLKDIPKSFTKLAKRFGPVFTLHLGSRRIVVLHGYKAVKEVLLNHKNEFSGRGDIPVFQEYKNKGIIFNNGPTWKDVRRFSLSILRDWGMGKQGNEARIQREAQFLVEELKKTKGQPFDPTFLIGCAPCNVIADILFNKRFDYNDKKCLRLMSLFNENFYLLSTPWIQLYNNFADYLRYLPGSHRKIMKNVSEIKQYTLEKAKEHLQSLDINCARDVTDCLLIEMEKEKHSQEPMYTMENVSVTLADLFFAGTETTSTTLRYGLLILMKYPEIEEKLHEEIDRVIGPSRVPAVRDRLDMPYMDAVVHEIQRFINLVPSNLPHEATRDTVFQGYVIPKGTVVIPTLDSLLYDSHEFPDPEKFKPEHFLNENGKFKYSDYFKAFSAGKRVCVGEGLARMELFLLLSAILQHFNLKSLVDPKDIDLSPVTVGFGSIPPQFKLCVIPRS

O=P(O)(O)Oc1ccccc1OP(=O)(O)O has a Ki of 34 ± 3 µM (Signal transducer and activator of transcription 4 (Homo sapiens, UniProt Q14765); inhibitor).
CN1CCN(CCOC(c2ccccc2)c2ccccc2)CC1 has a Ki of 0.317 ± 0.0432 µM (SLC6A3; binding, [3H]CFT binding inhibition; HEK293; 15 min, 20 °C, with: 130 mM Na+).
With COc1ccc2c(c[n+](C)c3c4cc5c(cc4ccc23)OCO5)c1OC the Ki was 17.4 µM (Cytochrome P450 3A2 (Cyp3a2, Rattus norvegicus, UniProt P05183); Sprague-Dawley rat, male; 30 (unit not given), pH 7.4).
For C/C(=C\C(=O)OCCCCCCCC(=O)Nc1c2sscc-2[nH]c1=O)[C@@H](O)[C@@H]1OC[C@H](C/C=C/[C@@H](C)[C@H](C)O)[C@@H](O)[C@H]1O, the Ki was 0.019 ± 0.004 µM (Isoleucine--tRNA ligase (ileS, Staphylococcus aureus, UniProt Q5HGN8); adenylation activity, inhibitor, ATP-PPi exchange; enzyme 6.5 nM, preincubation, with: L-isoleucine 2 mM).
For CC(C)[C@H](N)C(=O)OCCCCCn1cnc2nc(NCc3ccc(Cl)c(Cl)c3)[nH]c(=O)c21, the Ki was 0.48 µM (DNA polymerase III PolC-type; inhibitor).
The Ki of COc1[nH]c(=O)c(C(=O)[C@@H](C)C[C@H](C)[C@@H](Cl)CCl)c(O)c1OC is reported as 97 ± 8 µM (putA (Escherichia coli, UniProt P09546); dead-end competitive inhibitor; pH 7.4, 20 °C, with: 100 mM proline, CoQ1 substrate).
For NC[C@H](NC(=O)c1ccc(C#CC#Cc2ccccc2)cc1)C(=O)NO, the Ki was 0.00987 µM (UDP-3-O-acyl-N-acetylglucosamine deacetylase C40S; enzyme activity, inhibitor).
c1ccc(C(OCCN2CCNCC2)c2ccccc2)cc1 has a Ki of 0.635 ± 0.0418 µM (SLC6A3 D313N; binding; HEK293 expressing DAT D313N; 0 mM Na+ with NMDG-Cl buffer, with: [3H]CFT).
The Ki of C=CC(O)CO (centres unmarked) is reported as 1200 µM (Cytochrome P450 2E1 (Cyp2e1, Rattus norvegicus, UniProt P05182); 4-nitrophenol oxidation, inhibitor; F344 rat liver microsomes; 30 min, pH 7.4, inhibitor binding to substrate-bound enzyme, with: 4-nitrophenol).
Cc1cccc(C)c1N1C(=O)CNC2(CCN(C)CC2)C1=O gave a Ki of greater than 10 µM (SLC6A3; binding).
COc1cc(Nc2ncc(F)c(Nc3ccc4c(n3)NC(=O)C(C)(C)O4)n2)cc(OC)c1OC has a Ki of 0.0158 µM (ADORA3 (Homo sapiens, UniProt P0DMS8); binding, radioligand binding).
For C[C@@H](O)[C@H](NC(=O)c1ccc(C#Cc2ccccc2)cc1)C(=O)NO, the Ki was 0.00116 µM (UDP-3-O-acyl-N-acetylglucosamine deacetylase C40S; enzyme activity, inhibitor).
For O=C(O)CNCP(=O)(O)O, the Ki was 739 ± 52 µM (EPSP synthase (Zea mays, UniProt A0A1D6NVZ6, P168S/T164I)).
With O=C(O)CCC(=O)C(=O)O the Ki was > 1000 µM and > 1300 µM (HIF1AN (Homo sapiens, UniProt Q9NWT6); cosubstrate).
O=C(O)c1cccc(Cc2c[nH]c3ccc(-c4ccc5cc[nH]c5c4)cc23)c1 gave a Ki of 3.1 µM (Envelope glycoprotein gp160, gp41 hydrophobic pocket (env, Human immunodeficiency virus type 1 group M subtype B, UniProt P04578, K574X)).
CN1[C@@H]2CC[C@H]1C[C@@H](OC(=O)c1ccccc1)C2 has a Ki of 10.19 ± 0.0534 µM (SLC6A3 D313N; binding; HEK293 expressing DAT D313N; 0 mM Na+ with NMDG-Cl buffer, with: [3H]CFT).
The Ki of CCOCCn1cnc2nc(NCc3ccc(Cl)c(Cl)c3)[nH]c(=O)c21 is reported as 0.55 µM (DNA polymerase III PolC-type; inhibitor).

Excerpt of the above:
c1ccc(C(OCCN2CCNCC2)c2ccccc2)cc1 has a Ki of 0.635 ± 0.0418 µM (SLC6A3 D313N; binding; HEK293 expressing DAT D313N; 0 mM Na+ with NMDG-Cl buffer, with: [3H]CFT).
The Ki of C=CC(O)CO (centres unmarked) is reported as 1200 µM (Cytochrome P450 2E1 (Cyp2e1, Rattus norvegicus, UniProt P05182); 4-nitrophenol oxidation, inhibitor; F344 rat liver microsomes; 30 min, pH 7.4, inhibitor binding to substrate-bound enzyme, with: 4-nitrophenol).
